# Measured values gathered from unrelated publications.
# Parts stem from different laboratories: compare values within a part only.

# Study 1
# Target: Histone acetyltransferase KAT6A, winged helix 1, GST fusion (KAT6A, Homo sapiens, UniProt Q92794, residues 1-85)
# Technique: protein binding microarray
# Molecule type: double-stranded DNA, one strand shown
# Sample: in vitro
# Tested at: not given
# Notes: 8-mer, flanks averaged, mean of 2 arrays, mostly near background
# Baseline: not given
# Direction: higher = stronger binding
# Construct (chain): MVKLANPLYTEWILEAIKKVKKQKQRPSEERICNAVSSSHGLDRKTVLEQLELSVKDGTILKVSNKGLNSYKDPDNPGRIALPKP
Sequence,E-score
CAACGTTA,0.0492
GCTCCTTA,-0.0081
GAAGAACA,-0.146
CGTAGGGC,0.213
GATCAGAC,-0.075
AGCTTAAT,-0.152
ATGCCCCG,0.0903
TGAAAGCA,-0.274
AGTCGTTG,-0.0441
CATAGCGA,0.00098
CCTACACG,-0.024
CGTATGCA,0.0709
ACTCCTGG,-0.131
GGATCCTA,-0.0545
ACCGGCTA,0.209
CGAATAAG,-0.125

# Study 2
# Target: Sal-like protein 4, full length isoform A (SALL4, Homo sapiens, UniProt Q9UJQ4, residues 1-1053)
# UniProt Q9UJQ4, sequence (whole entry, looked up): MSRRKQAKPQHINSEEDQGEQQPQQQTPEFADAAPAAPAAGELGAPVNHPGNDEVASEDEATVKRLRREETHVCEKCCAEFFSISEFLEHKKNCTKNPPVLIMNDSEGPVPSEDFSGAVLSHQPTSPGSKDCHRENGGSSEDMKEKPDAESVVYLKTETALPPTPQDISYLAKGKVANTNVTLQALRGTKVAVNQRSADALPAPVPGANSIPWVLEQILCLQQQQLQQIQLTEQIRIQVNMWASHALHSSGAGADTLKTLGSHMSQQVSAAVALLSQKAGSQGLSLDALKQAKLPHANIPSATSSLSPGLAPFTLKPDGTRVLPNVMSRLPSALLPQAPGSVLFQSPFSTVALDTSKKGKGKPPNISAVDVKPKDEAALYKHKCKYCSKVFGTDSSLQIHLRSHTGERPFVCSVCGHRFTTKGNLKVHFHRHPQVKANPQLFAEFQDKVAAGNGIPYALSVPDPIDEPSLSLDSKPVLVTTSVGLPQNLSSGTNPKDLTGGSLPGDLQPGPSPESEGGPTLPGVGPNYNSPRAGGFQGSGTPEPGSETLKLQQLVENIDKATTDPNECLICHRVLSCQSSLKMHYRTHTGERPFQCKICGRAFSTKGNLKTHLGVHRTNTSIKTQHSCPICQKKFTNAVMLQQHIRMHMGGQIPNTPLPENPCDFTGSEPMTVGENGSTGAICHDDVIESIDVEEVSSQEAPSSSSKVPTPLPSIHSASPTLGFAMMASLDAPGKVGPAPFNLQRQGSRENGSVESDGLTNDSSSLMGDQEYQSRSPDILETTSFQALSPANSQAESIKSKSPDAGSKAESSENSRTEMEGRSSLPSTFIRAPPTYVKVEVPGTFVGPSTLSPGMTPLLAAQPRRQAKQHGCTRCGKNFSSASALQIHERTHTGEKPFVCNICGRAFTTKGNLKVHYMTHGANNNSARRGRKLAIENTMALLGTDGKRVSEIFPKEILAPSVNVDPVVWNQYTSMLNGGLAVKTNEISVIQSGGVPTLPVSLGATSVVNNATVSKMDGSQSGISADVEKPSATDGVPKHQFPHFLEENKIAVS
# Technique: universal PBM
# Molecule type: double-stranded DNA, one strand shown
# Sample: in vitro
# Tested at: 600 nM
# Notes: 8-mer, flanks averaged, mean of replicates
# Direction: higher = stronger binding
Sequence,E-score
AGAGGTCA,-0.248
GTAATGCA,0.104
AGGGGTCA,-0.11
AAAAACAC,0.0964
ATCTACGC,0.177
AGACATAG,0.19
ATCCGCGC,-0.281
AAGCCCGT,-0.325
GGAACGTA,-0.0133
AGGACGAA,-0.108
AACATCCG,-0.0205
ACCACCAG,-0.165
ACGATACT,0.113
CCGAATTC,-0.122
GAACCTTC,-0.0394
CGTCAGAC,-0.191
AACGTAGA,0.142
CGACTGGC,-0.285
AGTAGCAC,-0.165
ATCCAGGC,-0.258
ATCATCCA,0.0952
ATCCACAA,0.16
ATGGTTGA,0.0816
ACAGCTGG,-0.223
CTTTAAAA,0.287

# Study 3
# Target: RNA binding protein fox-1 homolog 2, RRM domain, GST-SBP tag (RBFOX2, Homo sapiens, UniProt O43251-10, residues 100-194)
# Technique: RNA Bind-n-Seq
# Molecule type: RNA
# Sample: in vitro
# Tested at: 365 nM
# Notes: natural RNA segment, single round, ends assumed
# Baseline: no-protein control
# Direction: higher = stronger binding
# Target sequence (chain): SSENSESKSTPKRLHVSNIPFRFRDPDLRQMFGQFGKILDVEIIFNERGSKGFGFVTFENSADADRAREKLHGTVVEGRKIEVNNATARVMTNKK
Sequence,RBNS enrichment (R)
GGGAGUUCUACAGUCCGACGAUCUGUGUGCAUGACUAUGUGCUUAUCCACUUAAGACAAUAGGUAAAAGGGGAUCUGAGAAAUUAUGUAAUAGGGAGUGGGAAUAAAACUACUUAAUUCCUGUGGGCAGGUUAUGGAAUUCUCGGGUGCCAA,5
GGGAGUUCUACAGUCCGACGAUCCCUUAAGGACAAUUAUUCUUAAUAAUGCUUAUAGAAAAUGUUCUCUAAUUAAACAUGCCAAAAGGAAAAAGUAAGAGAAAGAGGGAGCAAGAAGAAAAUGGAAGAAAAAGUGGAAUUCUCGGGUGCCAA,0.643
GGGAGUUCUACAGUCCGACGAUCGAUGAGGAUAUCCAAGGAACCCAAAACCUGCUAACAUCGGUUGAAUCUGAAACGGCAGCUUCUGAGGAAACCCUGACCAACGCCUCCCAGCGCAUCAGCAAGCUUGAGAGUGGAAUUCUCGGGUGCCAA,0.806
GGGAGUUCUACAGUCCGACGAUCUUCCCAAUGUUGGAUAUUUCUACAUGAAUAAAGCAAGGAUCAGUGCCUCUUAUGUAAUUAACGCUCCUUGCUUUUGUGUAUGUAUGUGUGUUUGGGUUAUUCUUUACUUAUGGAAUUCUCGGGUGCCAA,0.732
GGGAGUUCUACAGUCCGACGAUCGGGCCAAGCGCUGGCCCCUCAGCGGUGAGCCCUGCCCACUCUUACCGAGCAAGGUGGGUGGCUCUGGCACGAGUCCCCCAGGGGGAGAGCAUGGCUACCAGGGAGCUGCAUGGAAUUCUCGGGUGCCAA,13.5
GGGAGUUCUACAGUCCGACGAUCAUCUUGCUCGGGCCCUAGCUGUUGGGGUUCUCAUGGGUUGCACUGACCAUACUGCUUACGUCUUAGCCAUUCCGUCCUGCUCCCCAGCUCACUCUCUGAAGCACACAUCAUGGAAUUCUCGGGUGCCAA,0.671
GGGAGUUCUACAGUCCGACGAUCAGUGUGCUGUUCUCAGCCUAAGAUGCAGCAGCAGCUCUUCCCACACACGCCCCCAGGUCUCCAGGGUAGAAAUCUUUCCAACAGUAGGAACCUAGAGUUAGUCAGGAGUAUGGAAUUCUCGGGUGCCAA,0.361
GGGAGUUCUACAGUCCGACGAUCCAUUGGCUCCAUCCCCUAGUCGCUGGACAGCUCUUUUUUUGAUUGGCUCAAAUCCUGUAAAGGGCUUGACCAGUCUCUACAUAGUCACCGUCCGCUUUUCCUGAGUUCUCUGGAAUUCUCGGGUGCCAA,0.196

# Study 4
# Target: Prothrombin, mature alpha-thrombin (F2, Homo sapiens, UniProt P00734)
# Technique: aptamer microarray, sandwich
# Molecule type: DNA with 2'F-ANA
# Sample: in vitro
# Tested at: 200 nM
# Notes: whole 15-mer aptamer, many near background
# With: Cy3 exosite-II aptamer, 400 nM
# Direction: higher = stronger binding
# Sequence: GGTTGGTGTGGTTGG
Modification,mean fluorescence intensity [a.u.]
2'F-ANA at 1 2 5 7 11 12 13 15,63.2
2'F-ANA at 2 3 4 6,638
2'F-ANA at 1 2 3 4 7 8 9 14,63.4
2'F-ANA at 2 3 7 8 10 13 15,402
2'F-ANA at 4 7 8 9 13 15,189
2'F-ANA at 1 2 4 5 9 10 11 15,70
2'F-ANA at 2 4 5 6 8 12 14,73.4
2'F-ANA at 1 3 5 6 10 11 14,45.4
2'F-ANA at 1 7 8 10,57.1
2'F-ANA at 3 5 6 8 9 10 12 13 14 15,49.8
2'F-ANA at 4 5 6 8 12 13 14,52.5
2'F-ANA at 1 4 7 8 10 11 13 14 15,47.3
2'F-ANA at 4 7 8 9 11,298
2'F-ANA at 1 5 6 10 11 12 14 15,52.5
2'F-ANA at 3 6 7 8 10 12 13 15,516
2'F-ANA at 5 7 8 9 10 11 13 14 15,58.3
2'F-ANA at 1 4 6 9 12 15,235
2'F-ANA at 1 2 3 6 13 14 15,59.1
2'F-ANA at 1 2 5 6 9 10 13 14 15,71.5
2'F-ANA at 1 2 3 4 7 8 9 15,206
2'F-ANA at 1 2 4 5 6 10 14 15,46.6

# For quick reference, copied from above (study 2):
Sequence,E-score
AACATCCG,-0.0205
ACCACCAG,-0.165
ACGATACT,0.113
CCGAATTC,-0.122
GAACCTTC,-0.0394
CGTCAGAC,-0.191
AACGTAGA,0.142
CGACTGGC,-0.285
AGTAGCAC,-0.165
